Experimental data collected from several papers.
Parts stem from different laboratories: compare values within a part only.

Block 1
Target: Sal-like protein 4, full length isoform B (SALL4, Homo sapiens, UniProt Q9UJQ4-2, residues 1-616)
Method: universal PBM
Molecule type: double-stranded DNA, one strand shown
Medium: in vitro
Concentration: not given
Notes: 8-mer, flanks averaged, mean of replicates
Reading: higher = stronger binding
| Sequence | E-score |
| --- | --- |
| ATTCAAAA | 0.261 |
| AGCATGGA | -0.0997 |
| ACGATGTG | 0.0447 |
| GATAGAGC | -0.0353 |
| ATGTGATA | 0.23 |
| AGGTCTAT | 0.0743 |
| GCTAGGCC | -0.246 |
| GACGATAC | -0.0796 |
| ATGTCGCA | 0.0213 |
| ACGACGAA | -0.0566 |
| GTATGAAA | 0.3 |
| ATCTTAAG | 0.0493 |
| AGACGTCC | -0.0712 |
| AATTTTCC | 0.148 |
| GGTTAGAC | -0.0676 |
| TCGACAAA | 0.231 |
| CATCCCCG | -0.226 |
| CCGGGTGC | -0.42 |
| ATCTCTGG | 0.00492 |
| ATTAGTGA | 0.164 |
| TAGGATGA | 0.0227 |
| CTATCGAA | 0.221 |
| CTCATAGA | 0.0936 |
| GCCTGCAC | -0.319 |
| TGCGTTAA | 0.117 |

Block 2
Target: RNA binding protein fox-1 homolog 2, RRM domain, GST-SBP tag (RBFOX2, Homo sapiens, UniProt O43251-10, residues 100-194)
Method: RNA Bind-n-Seq
Molecule type: RNA
Medium: in vitro
Concentration: 365 nM
Notes: natural RNA segment, single round, ends assumed
Relative to: no-protein control
Reading: higher = stronger binding
Constant ends, left off below: GGGAGUUCUACAGUCCGACGAUC … UGGAAUUCUCGGGUGCCAA
Construct (chain): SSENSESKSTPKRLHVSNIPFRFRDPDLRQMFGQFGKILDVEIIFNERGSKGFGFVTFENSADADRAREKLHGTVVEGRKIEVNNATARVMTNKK
| Sequence | RBNS enrichment (R) |
| --- | --- |
| AACAAGAAGAAAACCAACCCAAACCAGUGAAGUUUUUUAGAACCUUUAGAAGGGUGGUCUUUAUUCAGGUUUUACUGUAAUGGUAAGGAUUGACUCAAGAGACAGUAUUA | 0.399 |
| UGCCUUCUCUCAGCUCCCAGGCCAACAGUAGCCAAACCCCUAGAGACAGUGAUGCCUGCCCGCACCCUGGCCUGGUCCCUGGUCCUUCACUGGCGCCUUCUCGGAGCUGG | 0.485 |
| UGACUGAUAACAGCCAUUGCACUGAAGUGUGAGCUGUCCGUGUGUGACUUUAUAAAUACAGUUUUAAAACAUUUCACAUGCAUGGUAGCACGCAGAGGGUUUUGUUGUGG | 0.656 |
| CGCACGGUCACAUGAUCACUUCACUUCUCGAUGGCUAUUGCAGACCAAGACUGCAGUCAAGAAGGGAGGGUGAGCCUCACGAUCUUGGGUCUCAGGGCCUGACAUAGGGG | 0.391 |
| GACAGCUUUGUGAGUUAUUAUUGAAAAAUGAGGAUUCCAAGAGUCAGAGGAGUUUGAUAAUGUGCACGAGGGCACACUGCUAGUAAAUAACAUUAAAAUAACUGGAAUGA | 5.79 |
| UACAUUUAUUUCCCCCUGAUGUGGAAAAUCUAAAAGCACAGAAUGAUGGGAACAAGAGUAUGAUGUGCUUGGUAUCUGGCUUUUCCCCAAGCAGUCGAUGUCAAGGUUAC | 2.82 |
| AUUUCAGUCUUAAAGUGUGACUUGUAAGGAGCCAAGCUGUACAGUUUAGUUCAUGAUGGCAGCUCUCUGCCUCUUCAGAAAGUAUAUAUCAUAGUGGUAAAUAAUGUAGA | 0.459 |
| CACCUCUUCAACUUCUUCUGUGGCUUCUGUGUUACAUUGUUGCCCUGGUUCUCAUAUAUGCUGUGUAGACAAUGUUCUACAGUUAUGGCAAUAAAGAUAGAUUACAUCGC | 0.295 |
| UUUUGAACGUUGGGUUUUUUGUUGGAAGAAACUUGGAUGAAUCUGUCAUGUCAUUAACAGAACUGAAAUAUUCUAUUGUAAGACGUGCAUUUGCGGUUAGAAUGGUCUUG | 1.11 |
| AGAGGUGCAUUCUCCGACCUCUGCCUCAGGCCUGAGGACGCCCACUGGGAGCUGGGGCAUUUCCAUCUCCUGGUGGCCAUCCCUGGUCAGGGUGUGAGUGAGCUCUGCUA | 0.409 |
| UUUUUGUGAAAUUAUCUUGAUUUACAACGUGGUAUUGUAUUUUACAGAGUUCAUGAAGCCCCAAACAAUUUUUAUUUUUGUAAAACAAUUGUAUGUUUAAUCUGUUUCUG | 0.473 |
| GGGCAGAGCCUGUCCCCGCCUUCCCUCACUCUUCCUCAUCCUGCUUCUCUUUUCCUCGCAGAUGAUAAAAGGAAUCUGGCAUUCUACACCUGGACCAUUUGAUUGUUUUA | 1.28 |

Block 3
Target: Histone acetyltransferase KAT6A, winged helix 2, GST fusion (KAT6A, Homo sapiens, UniProt Q92794, residues 85-181)
Method: protein binding microarray
Molecule type: double-stranded DNA, one strand shown
Medium: in vitro
Concentration: not given
Notes: 8-mer, flanks averaged, mean of 2 arrays, mostly near background
Relative to: not given
Reading: higher = stronger binding
Construct (chain): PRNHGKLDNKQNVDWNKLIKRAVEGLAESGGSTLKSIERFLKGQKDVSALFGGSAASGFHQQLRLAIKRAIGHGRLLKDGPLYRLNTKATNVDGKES
| Sequence | E-score |
| --- | --- |
| GTCCATGA | -0.126 |
| CCGTAGTC | -0.251 |
| CCGCAATA | 0.00551 |
| ACTGTACC | -0.188 |
| AACGTAAC | -0.214 |
| ATCAGCAC | 0.0498 |
| CGAGAAAA | 0.0613 |
| CGGCCTAA | 0.00729 |
| GAGTCTCC | -0.0202 |
| ACGGACAG | -0.0466 |
| CCACACCA | 0.0796 |
| GACCGATA | -0.00989 |
| AACATTTC | -0.0888 |
| CCAGCCAA | -0.0143 |
| GGTCCTGA | 0.102 |
| GGACAACC | -0.0419 |
| CCTGCAAC | 0.0451 |
| GACTATTA | -0.0507 |
| GAGAGGGC | 0.126 |
| GATTGGAC | 0.0253 |
| ATATTGAA | 0.00775 |
| CAGCGGTC | -0.0881 |
| AGATATTC | -0.0579 |

Block 4
Target: Ras GTPase-activating protein-binding protein 1, C-terminal RGG region (G3BP1, Homo sapiens, UniProt Q13283)
Sequence of UniProt Q13283 (whole entry, looked up): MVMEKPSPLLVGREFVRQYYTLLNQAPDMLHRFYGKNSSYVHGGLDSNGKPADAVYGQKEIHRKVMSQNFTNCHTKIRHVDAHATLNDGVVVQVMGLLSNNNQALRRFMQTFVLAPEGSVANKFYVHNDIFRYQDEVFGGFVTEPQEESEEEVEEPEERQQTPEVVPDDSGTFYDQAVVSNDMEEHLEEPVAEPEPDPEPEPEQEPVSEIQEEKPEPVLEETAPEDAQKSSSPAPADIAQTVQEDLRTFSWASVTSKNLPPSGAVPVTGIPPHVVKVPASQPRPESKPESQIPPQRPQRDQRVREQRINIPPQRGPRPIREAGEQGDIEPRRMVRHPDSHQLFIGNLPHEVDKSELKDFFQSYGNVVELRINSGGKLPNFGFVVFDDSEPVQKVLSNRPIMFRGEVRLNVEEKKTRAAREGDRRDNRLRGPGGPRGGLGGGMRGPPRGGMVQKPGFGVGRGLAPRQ
Method: RNA Bind-n-Seq
Molecule type: RNA
Medium: in vitro
Concentration: 1 µM
Notes: whole 134-nt RNA, ends assumed
Together with: 150 mM KCl
Relative to: input library
Reading: higher = stronger binding
Constant ends, left off below: GGGAGUUCUACAGUCCGACGAUC … UGGAAUUCUCGGGUGUCAAGG
| Sequence | log2 enrichment |
| --- | --- |
| GUCCUGUGCUACACAUCGUAUGUACCGAAUCGGGUUUUUGGGAAAAAGGGUUUUUGGGAAAGUAUUAUGUUACGCCGUUCGGAUCUGCAC | -0.158 |
| GUCCUGUGCUACACAUCGUAUGUACCGAAUCGGUUUUUGGUUUUUGGGGUUUUUGGGGAAAGUAUUAUGUUACGCCGUUCGGAUCUGCAC | -0.831 |
| AGUCCUGUGCUACACAUCGUAUGUACCGAAUCGGGAAAAAGGGGAAAAAGGAAAAAGGAAAGUAUUAUGUUACGCCGUUCGGAUCUGCAC | -1.69 |
| GUCCUGUGCUACACAUCGUAUGUACCGAAUCGGGGAAAAAGGGGUUUUUGGGGAGGGGAAAGUAUUAUGUUACGCCGUUCGGAUCUGCAC | 1.58 |
| CCUGUGCUACACAUCGUAUGUACCGAAUCGGGGAAAAAAAGGGAAAAAAAGGAAAAAAAGGAAAGUAUUAUGUUACGCCGUUCGGAUCUG | -1.7 |
| GUCCUGUGCUACACAUCGUAUGUACCGAAUCGGGGAAAAAGGAAAAAGGGAAAAAGGGGAAAGUAUUAUGUUACGCCGUUCGGAUCUGCA | -1.15 |
| UCAAGUCCUGUGCUACACAUCGUAUGUACCGAAUCGGAAAGGAGGAAAAAAAGGAAAGUAUUAUGUUACGCCGUUCGGAUCUGCACUUCC | -1.44 |
| UGUGCUACACAUCGUAUGUACCGAAUCGGGGUUUUUUUGGGGUUUUUGGGGUUUUUUUGGGGAAAGUAUUAUGUUACGCCGUUCGGAUCU | -0.118 |
| AAGUCCUGUGCUACACAUCGUAUGUACCGAAUCGGGCCCGGGGCCCGGGCCCGGGGAAAGUAUUAUGUUACGCCGUUCGGAUCUGCACUU | -2.48 |
| CACAGACAACACGCACCCACACAGACACAGAGGGAAGGGGUUGAGAUGGGGACAGGGUGCACAGCAGGGCGGGGUAGGACCCCAGCCCCU | -0.662 |
| CUGUGCUACACAUCGUAUGUACCGAAUCGGGUUUUUUGGGGUUUUUUGGGGUUUUUUGGGGAAAGUAUUAUGUUACGCCGUUCGGAUCUG | -0.415 |
| UGCUGGAGAUGCAAUAUAUGAGGUGGUGAGUCUACAGCGAGAGUCUGACAAGGAGGAACCAGUCACUCCUACUAGUGGAGGGGGUCCAAU | -1.73 |
| CAAGUCCUGUGCUACACAUCGUAUGUACCGAAUCGGCCCCGGCCCCGGGCCCCGGAAAGUAUUAUGUUACGCCGUUCGGAUCUGCACUUC | -2.15 |
| UCCUGUGCUACACAUCGUAUGUACCGAAUCGGGGUUUUUUUGGGGUUUUUGGGGAGGGGAAAGUAUUAUGUUACGCCGUUCGGAUCUGCA | 1.16 |

Block 5
Target: Centromere-binding protein 1, full length, N-terminal tag (CBF1, Saccharomyces cerevisiae, UniProt P17106, residues 1-351)
Sequence of UniProt P17106 (whole entry, looked up): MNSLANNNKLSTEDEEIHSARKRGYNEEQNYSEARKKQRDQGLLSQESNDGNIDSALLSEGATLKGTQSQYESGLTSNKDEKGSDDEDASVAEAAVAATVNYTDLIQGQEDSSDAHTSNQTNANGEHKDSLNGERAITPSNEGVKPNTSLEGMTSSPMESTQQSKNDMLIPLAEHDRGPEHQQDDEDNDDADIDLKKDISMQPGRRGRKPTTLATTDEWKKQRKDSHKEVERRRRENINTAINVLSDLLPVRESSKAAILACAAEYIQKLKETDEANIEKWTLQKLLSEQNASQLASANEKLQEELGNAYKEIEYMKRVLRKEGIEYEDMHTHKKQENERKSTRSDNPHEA
Method: protein-binding microarray
Molecule type: double-stranded DNA, one strand shown
Medium: in vitro
Concentration: 0.8 µM
Notes: whole 60-bp probe, no competitor
Reading: higher = stronger binding
Constant ends, left off below: … GTCTTGATTCGCTTGACGCTGCTG
| Sequence | fluorescence intensity [a.u.] |
| --- | --- |
| CTATCTACGGTAAATCACACTAATCATTCTGATTTC | 538 |
| GAACATATCAAGAGACACGTCACGACACAACACTAG | 926 |
| TGTACGAAGCTATGCATCACCGTTATAGTAGTTAGG | 511 |
| GAATCTGTTTCTGGTTGCGTGATTTTTCTTTAGTAG | 757 |
| GAAAGAAGAAATAATCACGTTAGGCATCCAAGATAG | 690 |
| GAATACGACATTTGGCTCATCACCAGCTCGCGATAG | 509 |
| GAACTGAGATCTACCTGACGGGCGGTGAAAGCCTAG | 523 |
| GAATTCTTTCTACAGGTGATTGTATGTGGGCTTTAG | 639 |
| GAACAGAAGGATTCTCACCTGGTTGCAACCATATAG | 504 |
| CTATCAAGCGCTTAATACAACACGTCGGCTTTCTTC | 537 |
| GAAAACCAATCATGTCACGTAGTGAATTTACTTTAG | 724 |
| GAACTATACTAGCGTGGTGTGCATAATTATTAGTAG | 576 |
| CTAGGAGAGGAAAAGGACGTGCATATATTCTTTTTC | 536 |
| CCTAACTACTATAATCACGATGGATAGCTTCGTACA | 559 |
| CTATTTTCAATGTTATACGTGATTTTATCTTTGTTC | 635 |
| CTAAACAACTCGTGTCTCACGAGAGCGCCACTTTTC | 630 |
| CCTAACTACTATATCCACGCAACATAGCTTCGTACA | 531 |
| GAAGGGGACCGCTGTCACCTTGCCTGGGAAAGATAG | 555 |
| CTAACAAGGAAGCATCATCACTTATTACAACCATTC | 509 |
| GAATCCAACTAGAGTCACGGTTTTTCAAAGTCTTAG | 675 |
| GAACGCTTGCGGGAGCACGGGAGAAGGAACAGATAG | 621 |

For quick reference, copied from above (block 5):
| Sequence | fluorescence intensity [a.u.] |
| --- | --- |
| GAAAGAAGAAATAATCACGTTAGGCATCCAAGATAG | 690 |
| GAATCCAACTAGAGTCACGGTTTTTCAAAGTCTTAG | 675 |
| CCTAACTACTATAATCACGATGGATAGCTTCGTACA | 559 |
| GAACAGAAGGATTCTCACCTGGTTGCAACCATATAG | 504 |
| CCTAACTACTATATCCACGCAACATAGCTTCGTACA | 531 |
| CTATCAAGCGCTTAATACAACACGTCGGCTTTCTTC | 537 |
| GAAGGGGACCGCTGTCACCTTGCCTGGGAAAGATAG | 555 |
| CTATTTTCAATGTTATACGTGATTTTATCTTTGTTC | 635 |
| TGTACGAAGCTATGCATCACCGTTATAGTAGTTAGG | 511 |
| CTAACAAGGAAGCATCATCACTTATTACAACCATTC | 509 |
| GAATCTGTTTCTGGTTGCGTGATTTTTCTTTAGTAG | 757 |
| GAACTATACTAGCGTGGTGTGCATAATTATTAGTAG | 576 |
| GAAAACCAATCATGTCACGTAGTGAATTTACTTTAG | 724 |
